Results collected from several papers.
A part holds a random share of what one study measured. Positions count from the first letter of the parent shown.

Study 1
Target: ABI1, truncated, D143A, DHFR fusion (Arabidopsis thaliana)
Technique: DHFR PCA, deep sequencing
Sample: yeast
Setting: methotrexate growth selection, single substitutions
Added: (+)-ABA 0.0091 µM
Reference: wild-type fitted maximum
Reading: higher = stronger binding
Quantity: relative binding score
Parent: PYL1, truncated, DHFR fusion (Arabidopsis thaliana); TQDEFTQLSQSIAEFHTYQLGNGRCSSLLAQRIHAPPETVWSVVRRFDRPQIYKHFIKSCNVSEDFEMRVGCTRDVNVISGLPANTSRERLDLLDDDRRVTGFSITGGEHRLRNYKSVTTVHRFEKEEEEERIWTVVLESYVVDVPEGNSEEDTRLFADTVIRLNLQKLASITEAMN; partner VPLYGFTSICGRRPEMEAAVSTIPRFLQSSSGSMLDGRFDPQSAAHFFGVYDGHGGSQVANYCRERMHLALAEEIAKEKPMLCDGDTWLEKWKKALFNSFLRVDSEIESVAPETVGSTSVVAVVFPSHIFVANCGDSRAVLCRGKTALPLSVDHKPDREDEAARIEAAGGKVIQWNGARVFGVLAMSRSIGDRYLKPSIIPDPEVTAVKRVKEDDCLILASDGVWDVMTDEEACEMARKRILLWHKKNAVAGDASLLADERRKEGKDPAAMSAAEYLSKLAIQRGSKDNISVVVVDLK
Variant = E152N; result = 10.5%
Variant = S11N; result = 4.62%
Variant = D3E; result = 50.8%
Variant = E174W; result = -4.47%
Variant = S171R; result = 45.1%
Variant = V76Q; result = 1.57%
Variant = T160H; result = -2.62%
Variant = N22H; result = 34.3%
Variant = V100A; result = 29.4%
Variant = S87F; result = 29.5%
Variant = S150P; result = 4.05%
Variant = T154Q; result = -2.88%
Variant = F15M; result = 1.22%
Variant = T1S; result = 23.8%
Variant = I172Y; result = -2.11%
Variant = K126Y; result = 20.6%
Variant = G71L; result = -2.93%

Study 2
Target: CCNE2, cyclin fold, Cln2 fusion (human)
Technique: yeast growth competition, sequencing
Sample: yeast
Setting: weak parent motif
Reference: not given
Reading: higher = stronger binding
Quantity: normalised enrichment score
Parent: SLBP docking peptide (human); ARYKRKLLINDFG; partner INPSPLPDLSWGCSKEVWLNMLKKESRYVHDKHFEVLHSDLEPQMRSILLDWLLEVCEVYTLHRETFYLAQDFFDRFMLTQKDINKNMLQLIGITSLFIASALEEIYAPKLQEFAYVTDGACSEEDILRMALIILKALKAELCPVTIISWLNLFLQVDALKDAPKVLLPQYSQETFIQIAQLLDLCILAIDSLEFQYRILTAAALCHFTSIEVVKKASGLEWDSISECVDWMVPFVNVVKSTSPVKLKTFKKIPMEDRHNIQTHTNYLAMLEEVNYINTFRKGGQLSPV
Variant = D11Q; result = 1.32
Variant = F12C; result = 0.701
Variant = D11Y; result = 1.32
Variant = L8D; result = 0.473
Variant = R5V; result = 0.872
Variant = Y3V; result = 1.18
Variant = L7R; result = 0.85
Variant = L7K; result = 0.585
Variant = F12L; result = 0.716
Variant = N10R; result = -0.084
Variant = G13H; result = 1.26
Variant = A1H; result = 0.205
Variant = A1Y; result = -0.104
Variant = F12H; result = 0.197
Variant = R2A; result = 0.409
Variant = K4R; result = 0.378
Variant = R5D; result = 0.365
Variant = L7T; result = -0.217
Variant = K6M; result = 0.293
Variant = K6H; result = -0.173
Variant = F12T; result = -0.356
Variant = G13K; result = 0.243
Variant = G13Q; result = 1.27
Variant = A1N; result = 0.914
Variant = A1K; result = 0.0258

Study 3
Target: Histone acetyltransferase KAT6A, winged helix 2, GST fusion (KAT6A, Homo sapiens, UniProt Q92794, residues 85-181)
Technique: protein binding microarray
Form: double-stranded DNA, one strand shown
Sample: in vitro
Tested at: not given
Setting: 8-mer, flanks averaged, mean of 2 arrays, mostly near background
Reference: not given
Reading: higher = stronger binding
Quantity: E-score
Target sequence (chain): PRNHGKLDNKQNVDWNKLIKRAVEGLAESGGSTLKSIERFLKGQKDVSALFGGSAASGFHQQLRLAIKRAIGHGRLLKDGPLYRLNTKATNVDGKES
Sequence = ATTTTGCA; result = 0.0655
Sequence = ATGGATGC; result = -0.11
Sequence = ACACGTCT; result = -0.258
Sequence = CTGGTTCC; result = 0.063
Sequence = AGACACAA; result = 0.00106
Sequence = AGACACGG; result = 0.109
Sequence = CTGGTGTC; result = 0.123
Sequence = CTCAGCCC; result = -0.00149
Sequence = CCCTCGAC; result = -0.0012
Sequence = ACCCTCGA; result = -0.161
Sequence = GATCGCTA; result = -0.134
Sequence = CTCCGACC; result = 0.0207
Sequence = CAATGAAC; result = -0.0695
Sequence = AAGCTGTG; result = 0.0361
Sequence = GCTACTTA; result = -0.0963
Sequence = CGTGCGCA; result = 0.103
Sequence = AGCATCGC; result = 0.0804
Sequence = CAGTGTAA; result = -0.0192
Sequence = CCGGACAG; result = 0.0979
Sequence = GCATCATA; result = 0.105
Sequence = CAACGTGG; result = 0.044
Sequence = TCTTAAAA; result = 0.046
Sequence = CCAATGAA; result = -0.183
Sequence = AGATTAAT; result = 0.0652
Sequence = CAGTATTC; result = -0.0805

Study 4
Target: Sal-like protein 4, full length isoform B (SALL4, Homo sapiens, UniProt Q9UJQ4-2, residues 1-616)
Technique: universal PBM
Form: double-stranded DNA, one strand shown
Sample: in vitro
Tested at: not given
Setting: 8-mer, flanks averaged, mean of replicates
Reading: higher = stronger binding
Quantity: E-score
Sequence = CATATCAC; result = 0.261
Sequence = ATGATTCA; result = 0.199
Sequence = CCTAGCCG; result = -0.152
Sequence = ATAAGCTC; result = 0.0386
Sequence = AGATGGGA; result = 0.00343
Sequence = CGGTAGAA; result = -0.214
Sequence = ATTACACC; result = 0.0346
Sequence = CAAGGAGC; result = 0.00206
Sequence = AGGCCTAG; result = -0.143
Sequence = CCTTGACC; result = -0.272
Sequence = ACAAATGT; result = 0.281
Sequence = ACACCGGA; result = -0.207
Sequence = AAAAACTC; result = 0.14
Sequence = ATTGTCGA; result = 0.0942
Sequence = GTGCAAGA; result = 0.00087
Sequence = CCCGTCTA; result = -0.0992
Sequence = AATTCTTG; result = 0.197
Sequence = GCCCCTGA; result = -0.22
Sequence = CTGTGATA; result = 0.139
Sequence = ACTGCAGT; result = -0.0746
Sequence = CGGTGTGC; result = -0.223
Sequence = CCCATTTA; result = 0.108
Sequence = GTAGCAAA; result = 0.104
Sequence = AAACGGTC; result = -0.153
Sequence = AGTCGCAC; result = -0.0735

Study 5
Target: RNA binding protein fox-1 homolog 2, RRM domain, GST-SBP tag (RBFOX2, Homo sapiens, UniProt O43251-10, residues 100-194)
Technique: RNA Bind-n-Seq
Form: RNA
Sample: in vitro
Tested at: 365 nM
Setting: natural RNA segment, single round, ends assumed
Reference: no-protein control
Reading: higher = stronger binding
Quantity: RBNS enrichment (R)
All sequences stand within: GGGAGUUCUACAGUCCGACGAUC … UGGAAUUCUCGGGUGCCAA
Target sequence (chain): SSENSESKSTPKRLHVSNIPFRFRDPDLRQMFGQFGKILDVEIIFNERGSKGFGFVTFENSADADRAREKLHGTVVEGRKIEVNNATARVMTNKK
Sequence = GGGGAGGUCACUCAAUUCAAAAUUUUCUGUAUGAAAGCAUUUUUCACCAAAAUGAGCCUCAUCCCUUUAUGCAACACAUAACCUUACUGAGGGAGGGAAAUACAGAAGCC; result = 0.362
Sequence = UGUAGUCUUACAGGGCUGUGCUUGCUGGGCAUGCUUUUACGUCUGUGAGAUAAUUUCGGUUCAGUAAAUUGGCCAAUCUUUUUAUUUUUCUAAGACACAGAAAUGUAUUU; result = 1.33
Sequence = GAAAGAUGCAUAGUUGGCUCUCACAUGCUAAAUGCCAGUAGCGCCCUCCUUCGCUUGAAGUCAUGACAACCACAGUCCCUACUAGACCUGUUCAUCUUUUUUUUUUUUUU; result = 0.766
Sequence = GGGUGGGAGUAGGGAGCUAGUUUGUUGAUAAAUAGUUCCCAUUUCCCCAUGGAGAAUUUGACAUACCCUGGACUCCUGUGUGCCUCCUGCCAUCCCUGCACACAGCCUGG; result = 0.724
Sequence = AAGAACGGAAAUGCUGUCUUGUGAGCAUGAAGUGAACGGGCUGUUUUGCUCCAGCCACUUUUCUUGUACAACCACAUGGAUGGAUUAGAUGUCCUCAGGUCUUUUCCAUC; result = 1.82
Sequence = GUGCUUGGAAGCCUGUUGACUGUGCUUAAGGUUAGGCAUUUAGGAAGCACACUGCUUUUUAAACGACCACAGAAAGAAAGGACAAUUGUAAGAAGUAAAAACUUAUUUGG; result = 0.458
Sequence = UUCUGAUGAAGUGAUUGUAGUAGGUGUCUGUAGCUAGUCUUCAAGACCACACCUGGAAGAGUUUCUGGGCUGGCUUUAAGUCCUGUUUGAAAAAGCAACCCAGUCAGCUG; result = 0.345
Sequence = UAUGUUGGUCAGCGUCCACCUCCUAAGCUCAUAGGCAAAACUCACAGGUUAAAAUGGAAUUUAAUCUCAGAGAUCCUUUGUUCAAGAAUAUUUGAUUGCAUAUUUAGUUG; result = 0.66

A few entries again (study 4):
Sequence = ATGATTCA; result = 0.199
Sequence = CCTAGCCG; result = -0.152
Sequence = ATAAGCTC; result = 0.0386
Sequence = AGATGGGA; result = 0.00343
Sequence = CGGTAGAA; result = -0.214
Sequence = ATTACACC; result = 0.0346
Sequence = CAAGGAGC; result = 0.00206
Sequence = AGGCCTAG; result = -0.143
Sequence = CCTTGACC; result = -0.272
Sequence = ACAAATGT; result = 0.281
Sequence = ACACCGGA; result = -0.207
Sequence = AAAAACTC; result = 0.14
Sequence = ATTGTCGA; result = 0.0942
Sequence = GTGCAAGA; result = 0.00087
Sequence = CCCGTCTA; result = -0.0992
